Measured values from different studies.
Every numbered part comes from another study and shows a few of its results, in no order. Changes are numbered by the printed parent chain.

Series 1
Effect on: peptide binding
Form: peptide
Medium: yeast competitive growth
Together with: B2-Cln2 chimera
Direction: direction not given
`PHKTFRKLRLFDTPHT` gave an enrichment score of -0.298.
For `GPVKLEFDVSDGAT`, the enrichment score was 0.0214.
The enrichment score of `EPRNLLSLFEDTLDPT` is reported as 1.93.
For `RQVRRDLFAF`, the enrichment score was -1.39.
`AKRSLGFLPQPVPL` gave an enrichment score of -0.77.
With `KRCATPVIIDEILPSK` the enrichment score was 0.0479.
With `GTPKRCLDLSNLSSGE` the enrichment score was -0.0931.
With `YLYLLLTQSLWCRV` the enrichment score was -1.01.
`SPPRGRRLFPPGPAGF` has an enrichment score of -0.324.

Series 2
Target: Interferon regulatory factor 5, full length, phosphomimetic (IRF5, Homo sapiens, UniProt Q13568-2, residues 1-514, K96S/S451D/S453D/S456D/S462D)
Method: protein-binding microarray
Form: double-stranded DNA, one strand shown
Medium: in vitro
Tested at: 250 nM
Setting: 60-bp whole probe
Together with: salmon DNA 0.4 mg/ml
Relative to: random background probes
Direction: higher = stronger binding
Shared flanks, not repeated: GCCTAGCAC … GTCTTGATTCGCTTGACGCTGCTG
With `CCAGACCCTGATCCATGCATGTGCTAG` the log fluorescence was -0.833 z-score.
`TCATCTCTTTCCTTCTTACTGTGCTAG` has a log fluorescence of 1.57 z-score.
The log fluorescence of `GACGGTGTCGGGACTGGGGACGTGCTA` is reported as -0.336 z-score.
With `TTTGTCATCTATAATGGATATGTGCTA` the log fluorescence was 0.572 z-score.
The log fluorescence of `GACGGTTTCCTACTGGTGACGTGCTAG` is reported as 0.427 z-score.
`GACGGACTGCGTATCCTGACGTGCTAG` gave a log fluorescence of -0.507 z-score.
The log fluorescence of `TTAGATATGAGACTGGATTAGTGCTAG` is reported as 0.0542 z-score.
For `GACGGTCTCAGTTTCGAGACGTGCTAG`, the log fluorescence was 4.49 z-score.
`TATTATTTGCCTTGCATTTTGTGCTAG` gave a log fluorescence of 0.574 z-score.
`TTAGGTATCGACTTTCAGTTAGTGCTA` has a log fluorescence of 6.18 z-score.
`TTCGATATCGGGTATCGATTAGTGCTA` has a log fluorescence of 6.44 z-score.
With `TCATTTTTTTTTTCATCATTGTGCTAG` the log fluorescence was 1.64 z-score.
`GACGGTTTCGGTATCGGGAAGTGCTAG` has a log fluorescence of 9.51 z-score.
`TTAGGTTTCCTACTGCATTAGTGCTAG` gave a log fluorescence of 0.56 z-score.
With `TTAGGTTTCGGTTCCAGTTAGTGCTAG` the log fluorescence was 10.6 z-score.
The log fluorescence of `TCTACTTCTCTTTTTGCTTTGTGCTAG` is reported as 1.44 z-score.
For `TCAAGTTTCCATTTTCTACTGTGCTAG`, the log fluorescence was 2.33 z-score.
With `TGGGGTTCACTCCGGTACCCGTGCTAG` the log fluorescence was -0.505 z-score.
The log fluorescence of `TACTGCTGGAGCTCAAGAGCGTGCTAG` is reported as -0.837 z-score.

Series 3
Target: ABI1, truncated, D143A, DHFR fusion (Arabidopsis thaliana)
Method: DHFR PCA, deep sequencing
Medium: yeast
Setting: methotrexate growth selection, single substitutions
Together with: (+)-ABA 0.39 µM
Relative to: wild-type fitted maximum
Direction: higher = stronger binding
Starting sequence: PYL1, truncated, DHFR fusion (Arabidopsis thaliana); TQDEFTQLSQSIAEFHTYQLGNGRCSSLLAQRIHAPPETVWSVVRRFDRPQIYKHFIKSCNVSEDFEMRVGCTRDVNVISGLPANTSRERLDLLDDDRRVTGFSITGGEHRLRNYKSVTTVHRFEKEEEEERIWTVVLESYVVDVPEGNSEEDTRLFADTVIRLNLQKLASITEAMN
`V136T`: “relative binding score” 23.6%.
`Q7H` — result for “relative binding score”: 42.3%.
For `I57A`, “relative binding score” read -14.6%.
For `G148P`, “relative binding score” read -3.09%.
Under “relative binding score”, `H55A` is recorded as 72.9%.
For `E38A`, “relative binding score” read 14.1%.
For `E4F`, “relative binding score” read 24.3%.
For `I33W`, “relative binding score” read 4.22%.
`D92N` — result for “relative binding score”: 10.7%.
For `A13H`, “relative binding score” read 30.1%.
`I12F` — result for “relative binding score”: 2.42%.
`T39R` — result for “relative binding score”: 39.2%.
For `R90A`, “relative binding score” read 4.58%.
`G102E` — result for “relative binding score”: 0.0865%.
`N85Q`: “relative binding score” 67%.
Under “relative binding score”, `I52H` is recorded as 12.5%.
`V121N`: “relative binding score” -7.81%.
`S117A`: “relative binding score” 3.36%.
`S26A`: “relative binding score” 31.8%.
Under “relative binding score”, `E109V` is recorded as 8.19%.
`V40D`: “relative binding score” -1.58%.
`F56V`: “relative binding score” -3.06%.
Under “relative binding score”, `A158L` is recorded as 51%.
For `Y141E`, “relative binding score” read 0.663%.
`S9A`: “relative binding score” 50.4%.

Series 4
Target: CEP164, C-terminal peptide (human)
Method: DHFR complementation, deep sequencing
Medium: yeast
Setting: single substitutions, model-inferred values
Relative to: wild type
Direction: higher = weaker binding
Starting sequence: PDZK1, PDZ domain 2 (human); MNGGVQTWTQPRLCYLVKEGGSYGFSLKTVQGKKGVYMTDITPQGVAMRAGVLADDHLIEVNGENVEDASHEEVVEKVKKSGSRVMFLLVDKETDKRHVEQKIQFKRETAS; partner HNRVKVYRF
Under “binding free energy change”, `D56S` is recorded as 0.0435 kcal/mol.
Under “binding free energy change”, `K77T` is recorded as 0.064 kcal/mol.
`L13W`: “binding free energy change” 0.177 kcal/mol.
For `M86Y`, “binding free energy change” read -0.0738 kcal/mol.
For `G24Y`, “binding free energy change” read 0.45 kcal/mol.
For `S83L`, “binding free energy change” read -0.0461 kcal/mol.
For `K106C`, “binding free energy change” read -0.0759 kcal/mol.
`S70P` — result for “binding free energy change”: -0.308 kcal/mol.
`K92R` — result for “binding free energy change”: 0.342 kcal/mol.
`A69G` — result for “binding free energy change”: 0.221 kcal/mol.
For `V74R`, “binding free energy change” read 0.383 kcal/mol.
`V36A` — result for “binding free energy change”: -0.0525 kcal/mol.

Further values, each from its own experiment
With `PhoQ, residues 284 288 289 292 302 303 SIHLQL` the fold induction was 13.5 (PhoP, residues 12 14 15 18 19 MHTVL (Escherichia coli, UniProt P23836); Sort-seq, item: YFP reporter; E. coli; PhoQ-PhoP variant library, together with: 10 µM Mg2+; relative to: high Mg2+ state, higher = stronger signaling).

For quick reference, copied from above (series 3):
For `E4F`, “relative binding score” read 24.3%.
Under “relative binding score”, `H55A` is recorded as 72.9%.
`F56V`: “relative binding score” -3.06%.
For `G148P`, “relative binding score” read -3.09%.
`G102E` — result for “relative binding score”: 0.0865%.
`T39R` — result for “relative binding score”: 39.2%.
